Measured values pooled from the literature.
Numbered parts are unrelated; each lists some results of a single study. Changes are numbered by the printed parent chain.

Set 1 — technique: aptamer microarray, sandwich; molecule type: DNA with 2'F-ANA; matrix: in vitro; tested at: 200 nM; together with: Cy3 exosite-II aptamer, 400 nM; direction: higher = stronger binding; endpoint: mean fluorescence intensity; strand: GGTTGGTGTGGTTGG
Target: Prothrombin, mature alpha-thrombin (F2, Homo sapiens, UniProt P00734)
Setting: whole 15-mer aptamer, many near background
2'F-ANA at 1 2 3 4 5 7 8 11 13 14 15: 49 a.u.
2'F-ANA at 1 3 4 7 11 12 13: 268 a.u.
2'F-ANA at 3 5 7 8 9 12 13 14: 63.9 a.u.
2'F-ANA at 1 2 3 6 7 8 9 10 12 14: 56.5 a.u.
2'F-ANA at 1 3 5 6 7 8 10 12 13 15: 55.9 a.u.
2'F-ANA at 1 6 8 9 11 13 15: 130 a.u.
2'F-ANA at 2 3 6 8 9 11 13 14 15: 281 a.u.
2'F-ANA at 2 3 6 9 10 11 12 15: 312 a.u.
2'F-ANA at 1 2 8 10: 51.6 a.u.
2'F-ANA at 1 7 8 11 12 15: 356 a.u.
2'F-ANA at 2 3 4 5 8 9 11 14: 55.6 a.u.

Set 2 — target: CCND2, cyclin fold, Cln2 fusion (human); technique: yeast growth competition, sequencing; matrix: yeast; setting: weak parent motif; reference: not given; direction: higher = stronger binding; endpoint: normalised enrichment score
Parent: WEE1 docking peptide (human); HKTFRKLRLFDTP
R8F: -0.386
R8L: 0.00704
K6M: -0.238
R5F: -0.116
T12K: -0.115
F4I: 0.00713
F10G: -0.35
L9C: 0.122
D11L: 0.57
H1I: 0.817
R5S: -0.454

Set 3 — technique: RNA Bind-n-Seq; molecule type: RNA; matrix: in vitro; tested at: not given; reference: input RNA pool; direction: higher = stronger binding; endpoint: bound/input enrichment
Target: RING finger protein unkempt homolog, zinc fingers 1-6, GST-SBP tag (UNK, Homo sapiens, UniProt Q9C0B0, residues 30-357)
Chain of UniProt Q9C0B0 (30-357, looked up): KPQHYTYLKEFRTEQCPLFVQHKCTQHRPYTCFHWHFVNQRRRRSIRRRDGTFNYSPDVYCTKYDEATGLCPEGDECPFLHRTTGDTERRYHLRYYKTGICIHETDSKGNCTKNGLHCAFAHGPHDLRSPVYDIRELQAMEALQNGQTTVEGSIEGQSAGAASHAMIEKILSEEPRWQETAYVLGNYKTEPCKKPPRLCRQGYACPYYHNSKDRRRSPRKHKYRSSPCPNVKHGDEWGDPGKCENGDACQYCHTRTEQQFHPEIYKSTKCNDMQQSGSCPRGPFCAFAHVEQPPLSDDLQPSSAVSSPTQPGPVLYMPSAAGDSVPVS
Setting: RNA with constant flanks, human-mouse chimeric sites, ends assumed
Shared flanks, not repeated: GGGAGUUCUACAGUCCGACGAUC … CAACAGAGGAUUGAGCAUCA
CACACACUCUUCUGCGGCACCCUCAUUUUGCAGGCCCGGGCCUAUGUGGGACCGCACGUCCUGGCAGUGGUGACCCGGACAGGGUUCUGCACGGCAAAAGGGGGCCUGGUGAGCUCCAUC: 0.11 ratio
CCCCACAACCAUUUGCAGGUCUGGAACUGCACUCUCUUUUUUAAAAAACAUGUAUACAUUUUAGGGCUGUAGAUUUAUUUUCCUGGUUUUGUUUUUCUUGCUUAUUCUUUGAGCACAGAA: 2.09 ratio
UCUGGCCACACUCGUGUGUAUGGUGUUUGCUUUGUGGACACUUCACUGGGCAAGUUUUUCAUCGGCCAGUUUUCGGAUGACCGCCACUGUUCCAGAUUUAGGACGCUAGUGGCACACUAU: 0.137 ratio
UUGGAAGGACCAGAGCCUAAUCAACUGAAACCAUUAGUUAUACAGGCUAUGCCCACCCUAAUAGAACUAAUGAAAGACCCCAGUGUAGUUGUUCGAGAUACAGCUGCGUGGACUGUGGGC: 0.426 ratio
CAGCCUCAGAGCCCAGACUUCCUGGAUAUUACCAACCCUAAAGCGGUAUUAGAAAAUGCAUUGAGAAACUUUGCCUGUCUGACGACUGGAGAUGUGAUUGCUAUCAACUACAAUGAGAAG: 0.482 ratio
UCUUUAAAAAAAAAAUUACCUUUUCUGCAUAUUAUAGCCCUCCCAUAGAUCCACGUUCACACUAGAAGAGCAAAGGCUUUGCACGGAGCUCAAACAUCUGAUGAAGAAAGAUUUCUGAGA: 6.5 ratio
UUACCCGAGAACGAGGAUGAGCUGGAGAGCACCAACAGACGCUAUACCAAGAGGGACUGUAGCACUUUCCUCAGAACUAGUGAGACGGGCAUCGUGGACCAGGUCAUGGUCACUCUCAAC: 0.324 ratio
CAGGGCACAGCACCUACCCCCUCCUCCUUUCCACACCUGCAAACUCUUUUACUUGGGCUGAAUAUUUAGUGUAAUUACAUCUCAGCUUUGAGGGCUCCUGUGGCAAAUUCCCGGAUUAAA: 0.827 ratio
CAACCUCAGAGCCCAGACUUCCUGGAUAUUACCAACCCUAAAGCGGUAUUAGAAAAUGCAUUGAGAAACUUCGCCUGUCUGACGACUGGGGAUGUGAUUGCUAUCAACUACAAUGAGAAG: 0.345 ratio
UCUGGUCACACUCGUGUGUAUGGUGUUUGCUUUGUUGACACUUCACUGGGCAAGUUUUUCAUCGGCCAGUUUUCGGAUGACCGCCACUGUUCGAGAUUUAGGACGCUAGUGGCUCACUAU: 0.234 ratio
GAUGAUAAUCACACAAAUGUGGCACUUUUACAUGACCAGCCUUGGGAUUCUUUUCCUGAUUAAUAUUCUCCCUGGAACCACUAGCCAAGGGGAAUCAAGACGACAAGAACCCGGGGACUU: 0.159 ratio

Other studies, line by line
PhoQ, residues 284 288 289 292 302 303 NLGVHL
fold induction (PhoP, residues 12 14 15 18 19 HLGGL (Escherichia coli, UniProt P23836); Sort-seq, refers to: YFP reporter; E. coli; PhoQ-PhoP variant library, together with: 10 µM Mg2+; reference: high Mg2+ state, higher = stronger signaling): 10.1

Excerpt of the above (set 2):
R8L: 0.00704
F10G: -0.35
K6M: -0.238
